# Measured values pooled from the literature.
# Protocols differ between the studies behind these lines. Values joined by “and” are separate records of one study, mostly repeats; a detail may differ. ± gives the spread as reported.
# CPL: CPL (Toxoplasma gondii, UniProt Q6DMN0)
# Aminopeptidase N: Aminopeptidase N (Neisseria meningitidis, UniProt Q9JYV4)
SMILES,target,test,test system,conditions,how to read,endpoint,result
CC(=O)N[C@H]1C(O)O[C@H](CO)[C@@H](O[C@@H]2O[C@H](CO)[C@H](O)[C@H](O)[C@H]2O)[C@@H]1O (stereo partly drawn),"Galectin-3 (LGALS3, Homo sapiens, UniProt P17931)",ITC,,,,stoichiometry,1.08
Cc1cc(O)cc(C)c1CC(N)C(=O)NC1CCNc2c(F)cc(Cc3ccccc3)cc21 (stereo not drawn),"Delta-type opioid receptor (Oprd1, Rattus norvegicus, UniProt P33533)","GTPγS binding, agonist",C6 cells expressing DOR,,baseline: DPDPE at 10 µM,maximal stimulation,28%
O[C@@H]1[C@@H](O)[C@H](O[C@@H]2OC[C@@H](O)[C@H](O)[C@H]2O)C[C@H]2N[C@@H]12,"Probable endo-1,4-beta-xylanase C (xlnC, Aspergillus niger, UniProt C5J411)","activity-based probe binding, competitive inhibitor, in-gel fluorescence","Aspergillus niger, xylan-induced secretome","concentration not given, band near 30 kDa, with: Cy5 xylobiose activity-based probe",,probe labelling,inhibited
N#Cc1nc(N2CCOCC2)nc(N(Cc2ccc(F)cc2)CC2CCCNC2)n1 (stereo not drawn),CPL,"enzyme activity, inhibitor",,,baseline: human over Toxoplasma IC50,selectivity ratio,6.7 and 7
CCOC(=O)/C(C#N)=C/c1cccc(C(N)=O)c1,"Genome polyprotein, 3C protease (Human enterovirus D68, UniProt Q68T42, C1641Y/I1565V/I1594T/R1603K/Y1579H)",ITC,enterovirus D68,"25 °C, with: DTT 10 mM",,binding free energy,-6.81 kcal/mol
C=CC1CN2CCC1CC2C(O)c1c(-c2ccc(N=Nc3ccccc3)cc2)cnc2ccc(OC)cc12 (stereo not drawn),"Sodium channel protein type 5 subunit alpha (SCN5A, Homo sapiens, UniProt Q14524)","blocker, whole-cell patch clamp",,"10 µM, cis isomer",,sodium current,decreased
NC(=O)Cc1cc(=O)oc2cc(NC(=O)[C@@H](N)CCc3ccccc3)ccc12,Aminopeptidase N,"enzyme activity, substrate",,"3 µM, pH 7.5, 37 °C",baseline: L-hArg-ACC,relative hydrolysis rate,38.5 to 74%
CC(C)CCN(CCc1ccccc1)c1nc(C#N)nc(N2CCOCC2)n1,CPL,"enzyme activity, inhibitor",,,baseline: human over Toxoplasma IC50,selectivity ratio,0.8
O=C(c1ccc2c(c1)c1ccccc1n2CCN1CCOCC1)c1cccc2ccccc12,"Cannabinoid receptor 1 (CNR1, Homo sapiens, UniProt P21554)","GTPγS binding, agonist",,cell membranes,,Emax,130%
NC(=O)Cc1cc(=O)oc2cc(NC(=O)[C@@H](N)CCc3ccc(O)cc3)ccc12,Aminopeptidase N,"enzyme activity, substrate",,"3 µM, pH 7.5, 37 °C",baseline: L-hArg-ACC,relative hydrolysis rate,38.5 to 74%
C=C(c1ccccc1)[C@@H](N)P(=O)(O)O,"PAL1 (Petroselinum crispum, UniProt P24481)","enzyme activity, inhibitor",,"concentration not given, with: L-phenylalanine",,time to complete fast binding step,≤ 1 min
CC(C)P(=S)(NP(=S)(C(C)C)C(C)C)C(C)C,"Alpha-amylase (Bacillus subtilis, UniProt P00691)","binding, Van't Hoff analysis",,"pH 6.8, 298–310 K",,ΔH,5.76 kcal/mol
CC[C@@H](C)[C@@H](NC(=O)[C@@H](CC(N)=O)NC(=O)[C@@H](CC(N)=O)NC(=O)[C@H](N)CCCNC(N)=O)C(=O)N1C[C@@H](n2cc([C]34[CH]5[CH]6[CH]7[CH]3[Fe]6754389%10[CH]4[CH]3[CH]8[CH]9[CH]4%10)nn2)C[C@H]1C(=O)N[C@@H](Cc1csc2ccccc12)C(=O)N[C@H](CO)C(N)=O (stereo partly drawn),"Envelope glycoprotein gp160 (env, Human immunodeficiency virus type 1 group M subtype B, UniProt P35961)",ITC,,"concentration not given, pH 7.4, 25 °C",,binding entropy term -TΔS,5.7 ± 2.2 kcal/mol
CC(C)C[C@H](NC(=O)[C@H](C)NC(=O)[C@H](C)NC(=O)[C@H](C)NC(=O)[C@H](C)NC(=O)[C@@H](NC(=O)[C@H](CC(C)C)NC(=O)[C@H](CCCCN)NC(=O)[C@H](CCC(=O)O)NC(=O)[C@@H](NC(=O)[C@H](CO)NC(=O)CN)C(C)C)[C@@H](C)O)C(=O)N[C@@H](CCC(N)=O)C(=O)N[C@@H](CCCNC(=N)N)C(=O)N[C@@H](CC(C)C)C(=O)N[C@@H](CCCCN)C(=O)N[C@@H](CC(N)=O)C(=O)N[C@@H](CCC(=O)O)C(=O)N[C@@H](CCCNC(=N)N)C(=O)N[C@@H](Cc1c[nH]cn1)C(=O)N[C@@H](CCC(=O)O)C(=O)N[C@@H](CCC(=O)O)C(=O)N[C@@H](C)C(=O)N[C@@H](CCC(=O)O)C(=O)N[C@@H](CC(C)C)C(=O)N[C@@H](CCC(=O)O)C(=O)N[C@@H](CCCNC(=N)N)C(=O)N[C@@H](CC(C)C)C(=O)N[C@@H](CCCCN)C(=O)N[C@@H](CO)C(=O)N[C@@H](CCC(=O)O)C(=O)N[C@@H](Cc1ccc(O)cc1)C(=O)O,"Plasminogen (PLG, Homo sapiens, UniProt P00747, C188G/E240D/L256Y)","binding, SPR",,pH 7.4,,koff,0.0967 s⁻¹
O=C(O)/C=C/c1ccc(O)cc1,"Cholinesterase (BCHE, Homo sapiens, UniProt P06276)","enzyme activity, inhibitor, Ellman",,125 µg/mL,,inhibition,55.9%
O=c1c(O)c(-c2cc(O)ccc2O)oc2cc(O)cc(O)c12,"Acetylcholinesterase (ACHE, Homo sapiens, UniProt P22303)","enzyme activity, inhibitor",,62.5 µg/mL,,inhibition,45.8 ± 2.31%
C=C(C)C(=O)Oc1ccc(C(C)(C)c2ccc(OC(=O)C(=C)C)cc2)cc1,"Androgen receptor (AR, Homo sapiens, UniProt P10275)","reporter gene, antagonist",,with: 0.1 nM R1881,,significant antiandrogenic concentration range,0.6 to 20 µM
CCCCCCCCNP(=O)(Oc1ccccc1)O[C@@H]1O[C@H](CO)[C@@H](O)[C@H](O)[C@H]1F (stereo partly drawn),"Lysosomal acid glucosylceramidase (GBA1, Homo sapiens, UniProt P04062)","enzyme activity, irreversible inhibitor",,"pH 5.5, 37 °C, with: 2,4-dinitrophenyl beta-D-glucopyranoside",,inactivation rate constant,15 min⁻¹
Nc1nc2c([C@@H]3O[C@@H]4COP(=O)(O)O[C@H]5[C@@H](O)[C@H](n6cnc7c(=O)[nH]c(N)nc76)O[C@@H]5COP(=O)(O)O[C@H]4[C@H]3O)snc2c(=O)[nH]1,"Cyclic di-GMP phosphodiesterase RocR (rocR, Pseudomonas aeruginosa, UniProt Q9HX69)",substrate,,"10 µM, second binding orientation, with: 100 nM enzyme",,association rate constant k3,1.8e+06 ± 100000 M⁻¹ s⁻¹
CC(C)(C)n1ccc(C(=O)N2CCN(c3nc4ccccc4s3)CC2)c1,"hh, C-terminal autoprocessing domain (Drosophila melanogaster, UniProt Q02936)",inhibitor,,2.5 µM,,kmax,0.0009 s⁻¹
CCN(Cc1ccccc1)C(=O)CCc1nc(CN2CCN(C(=O)Cc3ccc(OC)c(OC)c3)CC2)no1,"Potassium voltage-gated channel subfamily KQT member 4 (KCNQ4, Homo sapiens, UniProt P56696)","potassium current, opener, whole-cell patch clamp",CHO stable,10 µM,baseline: control,current fold increase,1.3 ± 0.05
CC(=O)NCC(=O)N[C@@H](CO)C(=O)N[C@@H](CCCCNP(=O)(O)O)C(=O)NCC(=O)NCC(N)=O,"Phospholysine phosphohistidine inorganic pyrophosphate phosphatase (LHPP, Homo sapiens, UniProt Q9H008)",substrate,,"100 µM, pH 7.8",,first-order rate constant,4.24e-05 s⁻¹
CSCC[C@H](NC(=O)[C@H](CCCNC(=N)N)NC(=O)[C@H](CO)NC(=O)[C@@H](NC(=O)[C@H](CC(=O)O)NC(=O)[C@H](CC(=O)O)NC(=O)CCCCCNC(=O)c1ccc2c(c1)C(=O)OC21c2ccc(O)cc2Oc2cc(O)ccc21)[C@@H](C)O)C(=O)N[C@@H](CCC(=O)O)C(=O)N[C@@H](CCCCN)C(=O)N[C@H](C(=O)N[C@@H](CC(=O)O)C(=O)O)C(C)C,"Stress-induced-phosphoprotein 1 (STIP1, Homo sapiens, UniProt P31948)",fluorescence polarization,,pH 7.4,baseline: wild-type tracer,affinity decrease,≥ 3 fold
CC(=O)NC(Cc1ccc(Br)c(Cl)c1)C(=O)N[C@@H](C)C(=O)N1CCC[C@H]1C(=O)N1CCC[C@H]1C(=O)N[C@@H](CCC(=O)O)C(=O)N[C@@H](Cc1c[nH]cn1)C(=O)N[C@@H](CO)C(=O)N[C@H](C(=O)N[C@@H](C)C(N)=O)[C@@H](C)OP(=O)(O)O (stereo partly drawn),"Tyrosine-protein kinase receptor TYRO3 (TYRO3, Homo sapiens, UniProt Q06418)",,,10 µM,,inhibition,0.25 ± 0.01%

# A few entries again:
SMILES,target,test,test system,conditions,how to read,endpoint,result
O=c1c(O)c(-c2cc(O)ccc2O)oc2cc(O)cc(O)c12,"Acetylcholinesterase (ACHE, Homo sapiens, UniProt P22303)","enzyme activity, inhibitor",,62.5 µg/mL,,inhibition,45.8 ± 2.31%
CCCCCCCCNP(=O)(Oc1ccccc1)O[C@@H]1O[C@H](CO)[C@@H](O)[C@H](O)[C@H]1F (stereo partly drawn),"Lysosomal acid glucosylceramidase (GBA1, Homo sapiens, UniProt P04062)","enzyme activity, irreversible inhibitor",,"pH 5.5, 37 °C, with: 2,4-dinitrophenyl beta-D-glucopyranoside",,inactivation rate constant,15 min⁻¹
